# Earlier results that unrelated publications cite.
# Each line is one published result; not all experiments were run side by side. ± gives the spread as reported.
SMILES,tested on,assay,system,conditions,how to read,endpoint,result
CC=O,ADH1 H48S Saccharomyces cerevisiae,"reduction, substrate",,"pH 7.3, 30 °C",,kcat,2700 s⁻¹
CCN(CC)CCNC(=O)c1cc(Cl)c(N)cc1OC,,,dog,,,fraction unbound,0.294
CCC/C=C/C/C=C/C=C/C=N/NN=O,"fatty acyl-CoA ligases, long chain",,cultured cells,concentration not given,,acyl-CoA reduction,~40%
O=C(O)C(F)(F)C(F)(F)C(F)(F)C(F)(F)C(F)(F)C(F)(F)F,CYP1A2,inhibitor,,Tox21 screening,,IC50,inactive
CC(C)(O/N=C(\C(=O)N[C@@H]1C(=O)N2C(C(=O)[O-])=C(C[N+]3(CCNC(=O)c4ccc(O)c(O)c4Cl)CCCC3)CS[C@H]12)c1csc(N)n1)C(=O)O,KPC-3,"hydrolysis by enzyme, substrate",,,,kcat,> 0.13 s⁻¹
Nc1ncnc2c1ncn2[C@@H]1O[C@H](COP(=O)(O)OP(=O)(O)OP(=O)(O)O)[C@@H](O)[C@H]1O,"dnaK (Escherichia coli, UniProt P0A6Y8, E213C/T22C)",,,"2000 nM, 35 °C",,rate,~3 s⁻¹
CCCc1cc(F)ccc1C(O)c1ncc[nH]1 (stereo not drawn),PAR2 (F2RL1),antagonist,,,,IC50,0.344 µM
CCCCCOc1ccc(-c2ccc(-c3ccc(C(=O)N[C@H]4C[C@@H](O)[C@@H](O)NC(=O)[C@@H]5[C@@H](O)[C@@H](C)CN5C(=O)[C@H]([C@@H](C)O)NC(=O)[C@H]([C@H](O)[C@@H](O)c5ccc(O)cc5)NC(=O)[C@@H]5C[C@@H](O)CN5C(=O)[C@H]([C@@H](C)O)NC4=O)cc3)cc2)cc1,,,"human, invasive aspergillosis patients","dose not given, sample A kg patient, typical value",,central volume of distribution,8.91 L
O=S(=O)(O)C(F)(F)C(F)(F)C(F)(F)C(F)(F)C(F)(F)C(F)(F)F,PPARα (human),"reporter gene, agonist, Gal4 transactivation",human hepatocarcinoma cell line,,relative to: positive control,efficacy,59%
O=C(NCCCNc1nc(Nc2ccc(N3CCOCC3)cc2)ncc1C1CC1)C1CCC1,TBK1,,,,,IC50,0.006 µM
COc1ccc2c(c1)[nH]c1c(C)nccc12,human CDK7/cyclin H,"kinase activity, inhibitor",,,,IC50,> 10 µM
CC1(C)NC(=O)C(Cc2ccc(O)cc2)NC(=O)CNC(=O)C(Cc2ccc3ccccc3c2)NC(=O)C(CCCN=C(N)N)NC1=O (stereo not drawn),human CXCR4 D97A mutant,,,,,EC50,0.35 µM
CC(O)(C(F)F)C(NC(=O)c1ccc(C#CC#Cc2ccc(N)cc2)cc1)C(=O)NO (stereo not drawn),Escherichia coli LpxC,,,,,residence time,~12 h
O=S(=O)([O-])C(F)(F)C(F)(F)C(F)(F)C(F)(F)F.[K+],CYP3A4,inhibitor,,Tox21 screening,,IC50,inactive
C1=C2CCCN[C@H]2[C@@H]2C[C@H]1[C@H]1CCCCN1C2,cathepsin L,,,concentration not given,,activity class,inactive
O=[N+]([O-])O,"anion exchanger, human",substrate,neutrophils,,,Km,8.4 mM
O=C1Nc2ccc(Cl)cc2[C@@](C#CC2CC2)(C(F)(F)F)O1,HIV-1 reverse transcriptase K101Q,,,,relative to: mutant over wild type,EC50 fold change,3.06 fold
Clc1cc2c(cc1Cl)Oc1cc(Cl)c(Cl)cc1O2,Atlantic cod AHR2a,"reporter gene, agonist",Gadus morhua,,,EC50,> 0.01 µM
CCCCCCCCCCCCCC(=O)O[C@@H]1[C@@H](C)[C@@]2(O)[C@@H](C=C(CO)C[C@]3(O)C(=O)C(C)=C[C@@H]23)[C@@H]2C(C)(C)[C@]12OC(C)=O,phorbol ester binding site,,,reference compound,,Hill coefficient,1
Cc1cc(O)c2c(c1)C(=O)c1cc(O)cc(O)c1C2=O,CK2 I174A mutant,,,concentration not given,relative to: wild-type CK2 over I174A,potency reduction,5.1 to 7.3 fold
COC(=O)[C@@H]1C[C@H](OC(C)=O)C(=O)[C@H]2[C@@]1(C)CC[C@H]1C(=O)O[C@H](c3ccoc3)C[C@]21C,kappa opioid receptor I294A,,,,,Ki,0.012 ± 0.006 µM

# Repeated from above:
SMILES,tested on,assay,system,conditions,how to read,endpoint,result
C1=C2CCCN[C@H]2[C@@H]2C[C@H]1[C@H]1CCCCN1C2,cathepsin L,,,concentration not given,,activity class,inactive
